Experimental data pooled from the literature.
Protocols differ between the studies behind these lines. ± gives the spread as reported.
TMPRSS2: Transmembrane protease serine 2 (TMPRSS2, Homo sapiens, UniProt O15393)
FGFR1: Fibroblast growth factor receptor 1 (FGFR1, Homo sapiens, UniProt P11362)
Grm5: Metabotropic glutamate receptor 5 (Grm5, Rattus norvegicus, UniProt P31424)
Trpv1: Transient receptor potential cation channel subfamily V member 1 (Trpv1, Rattus norvegicus, UniProt O35433)
PDE5A: cGMP-specific 3',5'-cyclic phosphodiesterase (PDE5A, Homo sapiens, UniProt O76074)

With COC(=O)[C@]1(O)C[C@H](CP(=O)(OC(C)C)OC(C)C)[C@@H](O)[C@H](O)C1 the IC50 was 148 µM (3-dehydroquinate synthase, chloroplastic (DHQS, Arabidopsis thaliana, UniProt Q8VYV7); enzyme activity, inhibitor, malachite green phosphate release; 29 °C).
For NCc1ccc(NC(=O)c2cc3ccccc3cc2O)cc1, the IC50 was 2.1 µM (TMPRSS2; enzyme activity, inhibitor, fluorescence; with preincubation).
With O=C(O)c1ccccc1NCc1ccc(Cl)cc1Cl the IC50 was 5.9 µM (TRPM4 (Homo sapiens, UniProt Q8TD43); ion flux, inhibitor, fluorescence).
COc1cc2nccc(Oc3ccc(NC(=S)NC4CC4)cc3C(F)(F)F)c2cc1C(N)=O has an IC50 of 4.92 µM (FGFR1).
For COc1ccccc1CN1CCN2C(C)CCN([C@H](CCCCN)C(=O)NCC(c3ccccc3)c3ccccc3)C(=O)C2C1 (stereo partly shown), the IC50 was 0.003 µM (CXCR3 (Homo sapiens, UniProt P49682)).
For CC(NC(=O)c1ccccc1/N=C/c1c(O)ccc2ccccc12)c1ccccc1 (stereo not shown), the IC50 was 10 µM (Krev interaction trapped protein 1, FERM domain (KRIT1, Homo sapiens, UniProt O00522); HEG1-KRIT1 FERM interaction, inhibitor, flow cytometry bead).
The IC50 of COC(=O)C1CN1S(=O)(=O)c1ccc(-c2ccccc2)cc1 (stereo not shown) is reported as 0.45 µM (P4HB (Homo sapiens, UniProt P07237); enzyme activity, inhibitor, absorbance; pH 7.6).
O=c1c(OCc2ccccc2)c(-c2ccc(Cl)cc2)oc2ccccc12 has an IC50 of 0.36 ± 0.19 µM (β-glucosidase; enzyme activity, inhibitor).
CCOC(=O)c1cnc(Nc2nc3ccccc3o2)nc1-c1ccccc1 has an IC50 of 0.124 µM (Grm5; calcium signal, antagonist).
The IC50 of OC(c1ccccc1)(c1ccccc1)c1cccs1 is reported as 4 µM (Gap junction alpha-8 protein (Gja8, Mus musculus, UniProt P28236); gap junction current, inhibitor, dual whole-cell voltage clamp; transfected mouse N2a cell pairs).
The IC50 of CCC1(CC)C[C@@H](NC(=O)Nc2cccc3c(C)nccc23)c2cc(F)ccc2O1 is reported as 0.0037 ± 0.0014 µM (Trpv1; capsaicin-induced 45Ca2+ uptake, antagonist; CHO expressing rat TRPV1; pH 7.4, added: capsaicin 500 nM).
CCCCOC(=O)NS(=O)(=O)c1sc(CC(C)C)cc1-c1ccc(F)c(Cn2ccnc2)c1 gave an IC50 of over 10 µM (AGTR1 (Homo sapiens, UniProt P30556); ligand displacement in cells).
Cc1cc([N+](=O)[O-])cn(CC(=O)c2cc3cc(Cl)ccc3[nH]2)c1=O gave an IC50 of 15.9 ± 1.4 µM (RPA1 (Homo sapiens, UniProt P27694); inhibitor, FRET).
For CCc1cccc2c(C(=O)COC(=O)C34CC5CC(CC(Br)(C5)C3)C4)c[nH]c12, the IC50 was 2.4 µM (D14 (Arabidopsis thaliana, UniProt Q9SQR3); enzyme activity, inhibitor).
The IC50 of CC(C)Sc1ccc(SC(C)C)c(O)c(=O)c1O is reported as 112 ± 8 µM (Protein P, RNase H domain (P, Hepatitis B virus genotype D subtype ayw, UniProt P03156); RNase H activity, inhibitor; Hepatitis B virus).
With O=C(CCCCCCN(Cc1ccc2c(c1)OCO2)Cc1ccc2c(c1)OCO2)NO the IC50 was 0.76 µM (HDAC3 (Homo sapiens, UniProt O15379); enzyme activity, inhibitor, fluorescence).
For Cc1ccc(CNC(=O)[C@@H](NC(=O)[C@H](CCc2ccccc2)NC(=O)[C@H](CCc2ccccc2)N(C)C)C(C)C)cc1, the IC50 was 0.0671 µM (20S proteasome (Plasmodium falciparum, UniProt A0A5K1K7U1+Q8IJT1); β5 activity, inhibitor; added: Suc-LLVY-AMC, PA28α-activated).
With O=C(Nc1ccc(OC(F)(F)F)cc1)N1CCC(Cc2cccc(Oc3ccc(C(F)(F)F)cn3)c2)CC1 the IC50 was 1.4 µM (Faah (Mus musculus, UniProt O08914); enzyme activity, inhibitor, fluorescence; mouse tissue homogenate; 5 min preincubation).
For COc1cc2nccc(Oc3ccc(NC(=S)NC(C)C)c(Cl)c3)c2cc1C(N)=O, the IC50 was 0.646 µM (FGFR1).
The IC50 of Oc1ccc(CCNc2ncnc3[nH]ncc23)cc1 is reported as 202 µM (TDO2 (Homo sapiens, UniProt P48775); inhibitor; added: L-tryptophan 400 µM).
For COC(=O)[C@H]1C[C@H](OCCCl)[C@@H](O[C@H]2O[C@H](CO)[C@@H](O)[C@H](O)[C@@H]2n2cc(C(N)c3ccccc3)nn2)C[C@@H]1C(=O)OC (mixture of isomers), the IC50 was 407 µM (CD209 antigen (CD209, Homo sapiens, UniProt Q9NNX6); cell-free assay, SPR).
For CC(=O)N[C@@H](Cc1cnc[nH]1)C(=O)N[C@H](Cc1ccccc1)C(=O)N[C@@H](CCCNC(=N)N)C(=O)N[C@@H](Cc1c[nH]c2ccccc12)C(=O)NCCCOCCOCCOCCCNC(=O)COCC(=O)N[C@@H](Cc1cnc[nH]1)C(=O)N[C@H](Cc1ccccc1)C(=O)N[C@@H](CCCNC(=N)N)C(=O)N[C@@H](Cc1c[nH]c2ccccc12)C(N)=O, the IC50 was 0.0075 µM (Melanocortin receptor 4 (Mus musculus, UniProt P56450); ligand displacement, radioligand).
For C[C@@H](O)[C@H](NC(=O)CC(=O)NC[C@H]1O[C@@H](n2cnc3c(N)ncnc32)[C@H](O)[C@@H]1O)C(=O)O, the IC50 was over 1000 µM (tsaD/tsaC, with TsaB and TsaE (Escherichia coli, UniProt P05852+P45748); inhibitor, HPLC; pH 7.5, 23 °C, preincubation 1 min, added: ATP 1 mM and L-threonine).
With Oc1c(C(Nc2nccs2)c2ccccc2OCc2ccccc2)ccc2cccnc12 (stereo not shown) the IC50 was 6.95 ± 0.12 µM (Genome polyprotein, NS2B-NS3 protease (GP1, West Nile virus, UniProt Q9Q6P4); enzyme activity, inhibitor; 0.1% CHAPS, added: tetrapeptide substrate).
The IC50 of CC(C)C[C@H](NC(=O)[C@H](Cc1ccc(O)cc1)NC(=O)[C@@H](CCCNC(=N)N)NC(=O)[C@@H](CO)NC(=O)[C@H](Cc1ccccc1)NC(=O)[C@H](CC1CCCCC1)NC(=O)[C@H](CC(=O)O)NC(=O)CN1CCCN2CCN(CCCN(CC(=O)O)CC2)CC1)C(=O)N[C@@H](Cc1c[nH]c2ccccc12)C(=O)N[C@@H](CO)C(=O)O (single isomer, unassigned) is reported as 0.0059 ± 0.001 µM (Urokinase plasminogen activator surface receptor (Homo sapiens, UniProt Q03405); binding to pro-uPA, inhibitor, surface plasmon resonance; added: uPAR 0.5 nM).
For CNC(=O)c1ccc2c(c1)nc(-c1cn(CC(=O)c3ccccc3)c3ccccc13)n2CC1CCCCN1C(=O)OC(C)(C)C (stereo not shown), the IC50 was 3.6 µM (DDR1 (Homo sapiens, UniProt Q08345); cell-free assay).
With C=CC(=O)N1CCc2ccc(-n3c(=O)ccc4cnc5ccc(-c6cnn(C)c6)cc5c43)cc21 the IC50 was over 10 µM (LYN (Homo sapiens, UniProt P07948); enzyme activity, inhibitor).
The IC50 of NCCCC[C@@H](NC(=O)CCCCCNC(=O)c1ccc(-c2ccnc(N)n2)s1)C(=O)NCCCCCC(=O)N[C@H](CCCN=C(N)N)C(=O)N[C@H](CCCN=C(N)N)C(=O)N[C@H](CCCN=C(N)N)C(=O)N[C@H](CCCN=C(N)N)C(=O)N[C@H](CCCN=C(N)N)C(=O)N[C@H](CCCN=C(N)N)C(N)=O is reported as 0.0107 µM (cGMP-dependent protein kinase 1, isoform alpha (PRKG1, Homo sapiens, UniProt Q13976); inhibitor, fluorescence anisotropy displacement; added: ARC-1059 probe and cGMP).
COc1ccc(Cn2ccc3ccc(C(=O)NO)cc32)cc1 gave an IC50 of over 100 µM (HDAC (Lucilia cuprina egg nuclear extract); enzyme activity, inhibitor, fluorometric).
O=C(CSc1ccc(Cl)cc1)Nc1ccc2scnc2c1 has an IC50 of 27.3 µM (Trpv1; ion current, antagonist, two-electrode voltage clamp; oocytes).
COC(=O)c1ccc(CS(=O)(=O)CC(=O)C23CC4CC(CC(C4)C2)C3)o1 has an IC50 of 0.239 µM (HSD11B1 (Homo sapiens, UniProt P28845); enzyme activity in cells, inhibitor).
Cc1cc(-c2ccc(/N=N/c3ccc4c(S(=O)(=O)O)cc(S(=O)(=O)O)c(N)c4c3O)c(C)c2)ccc1/N=N/c1ccc2c(S(=O)(=O)O)cc(S(=O)(=O)O)c(N)c2c1O gave an IC50 of about 6 µM (F13A1 (Homo sapiens, UniProt P00488); enzyme activity, inhibitor, fluorescence; pH 7.4).
The IC50 of CC(C)NC(=O)[C@H](CCc1ccccc1)NC(=O)[C@H](CC(=O)NCC(C)(C)C)NC(=O)CCc1ccccc1 is reported as over 100 µM (Proteasome subunit beta type-10 / Proteasome subunit beta type-3 (Homo sapiens, UniProt P40306+P49720); inhibitor).
O=C(NCCCN1CCC(Cc2ccccc2)CC1)c1ccc2cc(Br)ccc2c1 has an IC50 of 0.31 to 46 µM (SLC6A4 (Homo sapiens, UniProt P31645); transporter uptake).
CC(C)(C)NC(=O)C(CCc1ccccc1)N(CCc1ccccc1)C(=O)[C@@H](N)Cc1c[nH]c2ccccc12 (mixture of isomers) gave an IC50 of 129 µM (Endothiapepsin (EAPA, Cryphonectria parasitica, UniProt P11838); enzyme activity, inhibitor, fluorescence).
The IC50 of CC(C)(O)C(=O)C(=O)Nc1cccc(C(=O)N2CCC(c3cccc(CN)c3)CC2)c1 is reported as 0.00274 µM (Tryptase beta-1 (Homo sapiens, UniProt Q15661); enzyme activity, inhibitor; tryptase 10 pM, added: AMC substrate).
The IC50 of CC(C)c1ccc(C(=O)Nc2ccc(CN)cc2)c(O)c1 is reported as 1.5 µM (TMPRSS2; enzyme activity, inhibitor, fluorescence; with preincubation).
For Cc1cc(O)c(C=O)c2c1C(=O)Oc1c(CO)c(O)c3c(c1O2)C(O)OC3=O (stereo not shown), the IC50 was 8.16 µM (PDE5A; enzyme activity, inhibitor, luciferase).
C=C(C)C(=O)Nc1ccc(-c2c(-c3ccc(Oc4nccc(C)n4)cc3)c3c(N)ncnc3n2C)cc1 has an IC50 of 1.29 µM (FGFR1; Caliper mobility shift; 30 min preincubation, added: 100 µM ATP).
The IC50 of COc1cc(/C=C/c2cc(/C=C/c3ccc(O)c(OC)c3)n(C(=O)c3ccco3)n2)ccc1O is reported as 25.8 µM (Sterol carrier protein 2 (Helicoverpa armigera, UniProt K7NSY9); displacement of 1,8-ANS, fluorescence; pH 7.0, 25 °C, added: 1,8-ANS 15 µM).
The IC50 of N#Cc1cnc(Nc2nc3ccccc3o2)nc1-c1ccccc1F is reported as 0.258 µM (Grm5; calcium signal, antagonist).
With CCCN(CC(=O)N(CCC)CC(=O)N(CCC)CC(=O)N(CCC)CC(=O)N(CCC)CC(=O)N(CCC)CC(=O)N(CCC)CC(=O)N(CCC)CC(=O)N(CCC)CC(=O)N(CCC)CC(=O)N(CCC)CC(=O)N(CCC)CC(=O)N(CC(N)=O)Cc1cn(CCCNC(=O)CCCOc2cccc(-c3nc4ccc(-c5nc6ccc(N7CCN(C)CC7)cc6[nH]5)cc4[nH]3)c2)nn1)C(=O)CNCc1cn(CCCNC(=O)CCCOc2cccc(-c3nc4ccc(-c5nc6ccc(N7CCN(C)CC7)cc6[nH]5)cc4[nH]3)c2)nn1 the IC50 was over 30 µM (MBNL1–r(CUG)109 complex; MBNL1 displacement; added: bulk yeast tRNA competitor).
With O=C(O)[C@@H]1Cc2c([nH]c3ccccc23)[C@@H](c2ccc(Cl)cc2F)N1 the IC50 was 0.14 ± 0.03 µM (MEP cytidylyltransferase IspD (Plasmodium falciparum, UniProt Q8I273); enzyme activity, inhibitor, fluorimetric pyrophosphate; 60 nM enzyme).
For C=Cc1ccc(/N=c2\oc3ccccc3cc2-c2ccccc2)cc1, the IC50 was 0.0127 µM (PTGS2 (Homo sapiens, UniProt P35354); enzyme activity, inhibitor).
COc1cc(N2CCN(C)CC2)ccc1Nc1ncc2c(n1)N(C)c1ccc(C)cc1C(=O)N2CC(F)(F)F has an IC50 of over 10 µM (DCLK2 (Homo sapiens, UniProt Q8N568); enzyme activity, inhibitor, radiometric).
With COc1cc2nccc(Oc3ccc(NC(=S)NCCN4CCOCC4)c(Cl)c3)c2cc1C(N)=O the IC50 was 3.75 µM (FGFR1).
COCCCN1CCc2c(Cc3ccc(Cl)cc3)[nH]c3c(OC)ccc(c23)C1=O has an IC50 of 0.0088 µM (PDE5A; enzyme activity, inhibitor).
COc1cc2nccc(Oc3ccc4sc(NCC(C)C)nc4c3)c2cc1C(N)=O has an IC50 of over 10 µM (FGFR1).
O=C(CN1CCOc2ccccc2C1)c1ccc2[nH]c(=O)[nH]c2c1 gave an IC50 of 130 µM (Single-stranded DNA cytosine deaminase (AICDA, Homo sapiens, UniProt Q9GZX7); deaminase activity, inhibitor, alkaline cleavage; 293T lysate, untagged; pH 7.2, 37 °C).
